Measured values collected from several papers.
Every numbered part comes from another study and shows a few of its results, in no order. “And” joins repeats or separate records; there may be more than shown.
Sequence of UniProt Q96L34 (whole entry, looked up): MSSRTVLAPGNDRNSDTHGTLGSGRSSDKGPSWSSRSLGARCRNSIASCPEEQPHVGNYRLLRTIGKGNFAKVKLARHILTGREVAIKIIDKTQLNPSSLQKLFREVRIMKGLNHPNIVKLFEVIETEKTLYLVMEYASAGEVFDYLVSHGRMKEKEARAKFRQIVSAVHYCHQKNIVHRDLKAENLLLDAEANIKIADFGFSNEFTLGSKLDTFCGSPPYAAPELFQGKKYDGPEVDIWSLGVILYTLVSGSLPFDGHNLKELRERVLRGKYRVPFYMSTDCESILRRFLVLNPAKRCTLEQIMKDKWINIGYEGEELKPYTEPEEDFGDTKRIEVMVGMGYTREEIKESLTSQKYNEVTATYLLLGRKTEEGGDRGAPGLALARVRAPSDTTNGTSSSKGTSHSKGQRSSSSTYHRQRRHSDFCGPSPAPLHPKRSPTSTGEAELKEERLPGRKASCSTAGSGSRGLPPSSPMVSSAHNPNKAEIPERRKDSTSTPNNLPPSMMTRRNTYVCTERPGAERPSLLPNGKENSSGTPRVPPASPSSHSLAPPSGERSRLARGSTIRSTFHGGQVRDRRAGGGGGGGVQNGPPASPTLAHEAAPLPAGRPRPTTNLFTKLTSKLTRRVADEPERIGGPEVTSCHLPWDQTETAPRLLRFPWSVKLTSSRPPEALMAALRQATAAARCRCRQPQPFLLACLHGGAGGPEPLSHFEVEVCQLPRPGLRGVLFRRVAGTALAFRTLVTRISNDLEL
Sequence of UniProt Q8IVH8 (whole entry, looked up): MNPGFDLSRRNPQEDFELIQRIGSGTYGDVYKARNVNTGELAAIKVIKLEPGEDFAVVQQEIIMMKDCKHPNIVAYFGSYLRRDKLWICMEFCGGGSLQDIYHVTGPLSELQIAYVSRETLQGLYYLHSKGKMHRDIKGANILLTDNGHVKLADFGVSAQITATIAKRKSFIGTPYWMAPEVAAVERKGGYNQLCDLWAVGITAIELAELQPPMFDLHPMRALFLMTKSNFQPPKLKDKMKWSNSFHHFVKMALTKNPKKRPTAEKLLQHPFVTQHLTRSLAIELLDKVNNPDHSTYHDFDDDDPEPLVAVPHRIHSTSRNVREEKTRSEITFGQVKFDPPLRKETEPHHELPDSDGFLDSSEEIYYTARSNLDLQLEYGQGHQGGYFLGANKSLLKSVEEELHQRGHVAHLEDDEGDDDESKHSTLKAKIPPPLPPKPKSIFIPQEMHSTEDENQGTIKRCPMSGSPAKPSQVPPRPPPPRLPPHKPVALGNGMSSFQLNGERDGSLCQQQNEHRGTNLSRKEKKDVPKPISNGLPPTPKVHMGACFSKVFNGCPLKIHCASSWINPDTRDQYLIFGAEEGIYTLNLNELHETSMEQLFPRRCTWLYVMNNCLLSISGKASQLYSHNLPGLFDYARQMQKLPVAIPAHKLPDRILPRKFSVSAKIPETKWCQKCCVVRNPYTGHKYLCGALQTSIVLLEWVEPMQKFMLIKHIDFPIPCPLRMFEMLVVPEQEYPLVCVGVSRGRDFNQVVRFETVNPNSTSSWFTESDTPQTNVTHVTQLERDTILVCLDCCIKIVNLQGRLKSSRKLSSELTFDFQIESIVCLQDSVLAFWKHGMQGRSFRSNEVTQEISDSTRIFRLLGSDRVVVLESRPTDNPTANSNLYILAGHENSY
Sequence of UniProt O95382 (whole entry, looked up): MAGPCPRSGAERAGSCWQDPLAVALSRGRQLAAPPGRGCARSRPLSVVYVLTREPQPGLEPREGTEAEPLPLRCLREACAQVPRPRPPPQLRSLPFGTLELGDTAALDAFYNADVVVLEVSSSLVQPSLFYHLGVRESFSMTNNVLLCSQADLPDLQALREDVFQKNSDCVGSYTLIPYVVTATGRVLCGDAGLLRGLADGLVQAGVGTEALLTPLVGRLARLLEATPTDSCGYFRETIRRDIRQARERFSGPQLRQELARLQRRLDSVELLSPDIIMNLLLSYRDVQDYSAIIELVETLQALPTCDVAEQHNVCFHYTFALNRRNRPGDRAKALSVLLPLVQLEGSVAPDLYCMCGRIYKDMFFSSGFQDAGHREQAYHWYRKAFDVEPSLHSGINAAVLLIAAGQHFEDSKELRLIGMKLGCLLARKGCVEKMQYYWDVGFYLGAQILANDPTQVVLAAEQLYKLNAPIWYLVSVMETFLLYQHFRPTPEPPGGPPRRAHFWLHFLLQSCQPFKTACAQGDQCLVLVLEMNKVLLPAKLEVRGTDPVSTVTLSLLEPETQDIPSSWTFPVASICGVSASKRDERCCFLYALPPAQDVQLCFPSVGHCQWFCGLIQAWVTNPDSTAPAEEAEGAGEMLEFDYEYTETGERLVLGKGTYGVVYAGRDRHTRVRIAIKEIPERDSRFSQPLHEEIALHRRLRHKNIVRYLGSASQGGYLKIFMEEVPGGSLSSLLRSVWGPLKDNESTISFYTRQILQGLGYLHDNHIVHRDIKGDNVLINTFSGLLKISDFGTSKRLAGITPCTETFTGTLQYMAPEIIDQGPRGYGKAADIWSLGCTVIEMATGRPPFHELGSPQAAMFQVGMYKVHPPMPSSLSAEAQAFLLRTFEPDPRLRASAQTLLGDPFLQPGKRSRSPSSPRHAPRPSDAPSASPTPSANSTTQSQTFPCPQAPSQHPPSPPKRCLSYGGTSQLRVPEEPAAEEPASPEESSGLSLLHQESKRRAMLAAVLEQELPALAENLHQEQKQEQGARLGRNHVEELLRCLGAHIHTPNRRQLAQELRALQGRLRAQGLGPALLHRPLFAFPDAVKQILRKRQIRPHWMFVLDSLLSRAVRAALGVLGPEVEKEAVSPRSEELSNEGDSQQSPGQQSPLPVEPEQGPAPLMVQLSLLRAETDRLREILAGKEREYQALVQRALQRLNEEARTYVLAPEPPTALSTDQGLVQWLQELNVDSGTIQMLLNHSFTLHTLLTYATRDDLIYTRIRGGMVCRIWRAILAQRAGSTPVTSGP
Sequence of UniProt O43683 (whole entry, looked up): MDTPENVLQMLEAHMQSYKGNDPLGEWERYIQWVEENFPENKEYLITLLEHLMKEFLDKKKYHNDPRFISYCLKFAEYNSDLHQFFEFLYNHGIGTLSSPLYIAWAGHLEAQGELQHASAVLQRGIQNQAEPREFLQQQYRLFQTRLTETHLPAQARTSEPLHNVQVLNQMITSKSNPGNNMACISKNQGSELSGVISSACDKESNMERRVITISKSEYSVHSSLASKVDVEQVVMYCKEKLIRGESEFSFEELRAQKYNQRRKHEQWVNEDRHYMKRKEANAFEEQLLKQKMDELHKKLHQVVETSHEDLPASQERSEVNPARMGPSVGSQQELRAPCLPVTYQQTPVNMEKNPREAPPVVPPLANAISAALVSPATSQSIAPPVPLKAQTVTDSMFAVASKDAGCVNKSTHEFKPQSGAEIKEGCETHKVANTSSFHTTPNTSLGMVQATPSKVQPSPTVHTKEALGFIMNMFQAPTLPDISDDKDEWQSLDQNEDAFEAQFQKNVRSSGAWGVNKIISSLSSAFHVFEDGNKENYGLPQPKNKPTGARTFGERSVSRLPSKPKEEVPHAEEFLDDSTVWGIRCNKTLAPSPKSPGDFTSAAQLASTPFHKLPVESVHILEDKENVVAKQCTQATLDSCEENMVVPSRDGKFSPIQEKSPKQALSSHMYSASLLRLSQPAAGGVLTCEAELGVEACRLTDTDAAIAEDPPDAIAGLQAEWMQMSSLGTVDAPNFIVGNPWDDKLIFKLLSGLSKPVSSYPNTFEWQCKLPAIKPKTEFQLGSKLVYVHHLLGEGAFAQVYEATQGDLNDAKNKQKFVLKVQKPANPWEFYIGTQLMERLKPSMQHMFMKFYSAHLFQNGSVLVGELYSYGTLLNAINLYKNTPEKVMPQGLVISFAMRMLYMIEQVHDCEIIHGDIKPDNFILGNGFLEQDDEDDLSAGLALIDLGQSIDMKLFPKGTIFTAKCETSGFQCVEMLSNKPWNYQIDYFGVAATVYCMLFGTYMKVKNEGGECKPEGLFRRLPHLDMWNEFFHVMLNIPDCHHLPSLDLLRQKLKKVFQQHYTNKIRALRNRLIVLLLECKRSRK
Sequence of UniProt P49137 (whole entry, looked up): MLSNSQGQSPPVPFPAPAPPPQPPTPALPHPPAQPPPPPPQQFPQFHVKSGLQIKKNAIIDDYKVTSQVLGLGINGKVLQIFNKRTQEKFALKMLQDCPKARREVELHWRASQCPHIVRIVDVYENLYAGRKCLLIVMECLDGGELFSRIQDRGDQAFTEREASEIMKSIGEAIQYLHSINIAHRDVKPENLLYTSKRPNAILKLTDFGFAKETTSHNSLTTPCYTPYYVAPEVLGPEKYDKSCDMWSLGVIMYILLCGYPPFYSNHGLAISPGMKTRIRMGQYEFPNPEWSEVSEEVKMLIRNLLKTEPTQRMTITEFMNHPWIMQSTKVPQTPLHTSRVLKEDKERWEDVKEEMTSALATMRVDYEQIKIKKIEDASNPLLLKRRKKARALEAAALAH

Set 1 — cell line: A-375; tested at: 100 µM; time: 36 h
`CC1(C)S[C@@H]2[C@H](NC(=O)[C@H](N)c3ccc(O)cc3)C(=O)N2[C@H]1C(=O)O` has a viability of 79.3% and 112%.
With `CCOC(=O)[C@H](CCc1ccccc1)N[C@@H](C)C(=O)N1CCC[C@H]1C(=O)O` the viability was 122%.
The viability of `OC(CCCN1CCCCC1)(c1ccccc1)c1ccccc1` is reported as 104%.
`O=C(O)c1cccnc1` gave a viability of 97.5%.
For `C=C[C@H]1[C@H](O[C@@H]2O[C@H](CO)[C@@H](O)[C@H](O)[C@H]2O)OC=C2C(=O)OCC[C@]21O`, the viability was 113%.
The viability of `Nc1c2ccccc2nc2ccccc12` is reported as 7.35%.
For `CC(C)C(=O)Nc1ccc([N+](=O)[O-])c(C(F)(F)F)c1`, the viability was 5.65%.
`COc1cc(N)c(Cl)cc1C(=O)N[C@@H]1CCN(CCCOc2ccc(F)cc2)C[C@@H]1OC` (racemic) gave a viability of 65.1%.
`NC[C@H]1O[C@H](O[C@H]2[C@H](O)[C@@H](O[C@H]3O[C@H](CO)[C@@H](O)[C@H](N)[C@H]3O)[C@H](N)C[C@@H]2N)[C@H](N)C[C@@H]1O` has a viability of 121%.
`COc1cc2c(Oc3ccc4[nH]c(C)cc4c3F)ncnc2cc1OCCCN1CCCC1` has a viability of 1.14%.

Set 2 — read-out: cell-free assay; method: competition with immobilised ligand; tested at: 1 µM
SMILES: COc1ccc2c(c1)O[C@H](c1ccc(OC)c(OC)c1)C[C@@H]2NC(=O)C1(c2ccc3c(c2)OC(F)(F)O3)CC1
It gave 100% for remaining binding (CSNK1G1 (Homo sapiens, UniProt Q9HCP0)).
It gave 96% for remaining binding (CDK4 (Homo sapiens, UniProt P11802)).
STK11 (Homo sapiens, UniProt Q15831) — remaining binding: 100%.
It gave 100% for remaining binding (PRKX (Homo sapiens, UniProt P51817)).
The remaining binding was 88% (MARK4 (Homo sapiens, UniProt Q96L34)).
It gave 100% for remaining binding (CDC42BPB (Homo sapiens, UniProt Q9Y5S2)).
The remaining binding was 100% (FLT3 (Homo sapiens, UniProt P36888, R834Q)).
For LIM domain kinase 2 (LIMK2, Homo sapiens, UniProt P53671): remaining binding read 100%.
The remaining binding was 100% (PKMYT1 (Homo sapiens, UniProt Q99640)).
It gave 100% for remaining binding (MAPKAPK2 (Homo sapiens, UniProt P49137)).
For BUB1 (Homo sapiens, UniProt O43683): remaining binding read 100%.
FLT3 (Homo sapiens, UniProt P36888, D835H) — remaining binding: 100%.
It gave 100% for remaining binding (TIE1 (Homo sapiens, UniProt P35590)).
MAP3K6 (Homo sapiens, UniProt O95382) — remaining binding: 81%.
FLT3 (Homo sapiens, UniProt P36888, N841I) — remaining binding: 100%.
The remaining binding was 100% (MAP4K3 (Homo sapiens, UniProt Q8IVH8)).
The remaining binding was 97% (ACVR2A (Homo sapiens, UniProt P27037)).
CHEK1 (Homo sapiens, UniProt O14757) — remaining binding: 100%.

Set 3 — read-out: enzyme activity; mode: inhibitor; tested at: 0.5 µM; relative to: control
Target: Serine/threonine-protein kinase PAK 6 (PAK6, Homo sapiens, UniProt Q9NQU5)
Sequence of UniProt Q9NQU5 (whole entry, looked up): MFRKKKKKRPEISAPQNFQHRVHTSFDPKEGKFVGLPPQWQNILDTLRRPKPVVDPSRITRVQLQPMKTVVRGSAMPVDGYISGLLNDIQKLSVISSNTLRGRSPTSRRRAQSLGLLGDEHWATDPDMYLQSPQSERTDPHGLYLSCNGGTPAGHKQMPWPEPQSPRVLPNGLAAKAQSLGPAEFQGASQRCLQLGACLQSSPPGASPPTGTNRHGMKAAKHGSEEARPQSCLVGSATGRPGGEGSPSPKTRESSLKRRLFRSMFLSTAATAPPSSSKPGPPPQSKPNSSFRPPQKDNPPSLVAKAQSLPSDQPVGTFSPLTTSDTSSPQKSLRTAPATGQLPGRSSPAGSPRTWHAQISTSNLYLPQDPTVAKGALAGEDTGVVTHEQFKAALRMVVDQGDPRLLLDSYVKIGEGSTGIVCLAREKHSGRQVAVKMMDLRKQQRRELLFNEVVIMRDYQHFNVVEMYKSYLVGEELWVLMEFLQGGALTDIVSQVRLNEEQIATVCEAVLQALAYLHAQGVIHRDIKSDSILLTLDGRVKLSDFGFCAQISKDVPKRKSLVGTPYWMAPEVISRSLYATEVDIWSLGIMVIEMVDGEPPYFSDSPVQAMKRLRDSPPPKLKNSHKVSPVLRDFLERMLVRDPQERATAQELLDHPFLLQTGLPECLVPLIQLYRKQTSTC
`O=C(Nc1cccc(Nc2nccc(Nc3cccc(C(F)(F)F)c3)n2)c1)C1CC1` has a remaining activity of 100%.
For `N#C/C(=C\c1ccc(O)c(O)c1)C(=O)NCc1ccccc1`, the remaining activity was 99.4%.
`Ic1cccc(CSc2nnc(-c3ccncc3)o2)c1` has a remaining activity of 74%.
With `Cn1nc2c3c(cccc31)C(=O)c1ccccc1-2` the remaining activity was 98.6%.
The remaining activity of `O=C1c2ccccc2-c2n[nH]c3cccc1c23` is reported as 94.5%.
For `c1ccc(-c2cnc(Nc3ccc(OCCN4CCCC4)cc3)s2)cc1`, the remaining activity was 101%.
`CCN(CC)CCNC(=O)c1c(C)[nH]c(/C=C2\C(=O)Nc3ccc(F)cc32)c1C` has a remaining activity of 107%.
The remaining activity of `O=C(NC(NC(=S)Nc1ccc(F)c([N+](=O)[O-])c1)C(Cl)(Cl)Cl)C(c1ccccc1)c1ccccc1` (stereo not drawn) is reported as 101%.
`COc1cc2ncnc(Nc3cccc(Cl)c3)c2cc1OC` gave a remaining activity of 81.6%.
With `COc1cc2c(cc1OC)-c1[nH]nc(Nc3cccc(F)c3)c1C2` the remaining activity was 84.8%.
`N#Cc1c(NC(=O)c2cccc3ccccc23)sc2c1CCCC2` has a remaining activity of 101%.
`CN(C)C[C@H]1CCn2c(c(C3=C(c4cn(C)c5ccccc45)C(=O)NC3=O)c3ccccc32)C1` has a remaining activity of 114%.
`Cc1cc2ncc(-c3ccccc3)nc2cc1C` gave a remaining activity of 97.4%.
With `c1ccc(-c2[nH]ncc2-c2ccnc3ccccc23)nc1` the remaining activity was 106%.
The remaining activity of `C[C@@H]1CCN(C(=O)CC#N)C[C@@H]1N(C)c1ncnc2[nH]ccc12` is reported as 102%.
The remaining activity of `CN([C@@H](Cc1ccc(OS(=O)(=O)c2cccc3cnccc23)cc1)C(=O)N1CCN(c2ccccc2)CC1)S(=O)(=O)c1cccc2cnccc12` is reported as 102%.
The remaining activity of `COc1cc2ncnc(Nc3ccc(O)c(Br)c3)c2cc1OC` is reported as 92.8%.
`O=c1cc(-c2cccc3c2Sc2ccccc2S3)oc(N2CCOCC2)c1` has a remaining activity of 95.6%.
`O=C1C(Cl)=C(N2C(=O)CCC2=O)C(=O)c2ccccc21` has a remaining activity of 89.6%.
For `CCN(CC)CCNC(=O)c1c(C)[nH]c(/C=C2\C(=O)Nc3ccc(Cl)cc32)c1C`, the remaining activity was 101%.
With `Cc1nc2cc3nc(-c4cccs4)cnc3cc2n1C` the remaining activity was 96.6%.
For `Nc1cccc(-c2cc3c(Oc4cccc(O)c4)ncnc3[nH]2)c1`, the remaining activity was 109%.
For `CCOc1nc(NC(=O)Cc2cc(OC)ccc2OC)cc(N)c1C#N`, the remaining activity was 102%.
With `CCN(CC)C(=O)c1ccc(Nc2nc(OCC3CCCCC3)c3[nH]cnc3n2)cc1` the remaining activity was 95.5%.

Set 4 — host: human; medium: microsomes or S9; tested at: 2 µM; time: 0.5 h
With `CCOC(=O)c1cc(C(=O)OCC)n(CCCC#N)c1` the remaining compound was 34.3%.
With `Cn1cc(-c2cnc3c(N)nn(Cc4cccc(C(F)(F)F)c4)c3c2)cn1` the remaining compound was 63.8%.
For `Cc1c(C)n2c3c(=O)[nH]c(=O)n(C)c3nc2n1Cc1ccco1`, the remaining compound was 89.5%.
The remaining compound of `COc1cc2nc(OC3CCN(C(=O)OC(C)(C)C)CC3)nc(Nc3ccc(S(C)(=O)=O)cc3F)c2cc1OC` is reported as 2.69%.
With `Nc1nn(Cc2ccc(F)cc2Cl)cc1Cl` the remaining compound was 96.9%.
The remaining compound of `COCCCNC(=O)NCCc1c(C)nn(C)c1C` is reported as > 99%.
`CCC[C@H](CCO)n1c(C#N)cc(Cl)c1Br` has a remaining compound of 48.6%.
For `COc1c(-c2ccccc2)oc2ccccc2c1=O`, the remaining compound was 37.4%.
For `c1ccc(/C(Cc2ccn[nH]2)=N\N=C(/Cc2ccn[nH]2)c2ccccc2)cc1`, the remaining compound was 52.7%.
`O=c1[nH]c(O)ncc1S(=O)(=O)Nc1cccc2ccccc12` has a remaining compound of 97.5%.
For `CCN1CCN(CCNC(=O)c2ccc3c(c2)N(Cc2cccc(C)c2)C(=O)c2ccccc2S3(=O)=O)CC1`, the remaining compound was 11.5%.

For quick reference, copied from above (set 3):
`O=C(Nc1cccc(Nc2nccc(Nc3cccc(C(F)(F)F)c3)n2)c1)C1CC1` has a remaining activity of 100%.
For `N#C/C(=C\c1ccc(O)c(O)c1)C(=O)NCc1ccccc1`, the remaining activity was 99.4%.
`Ic1cccc(CSc2nnc(-c3ccncc3)o2)c1` has a remaining activity of 74%.
With `Cn1nc2c3c(cccc31)C(=O)c1ccccc1-2` the remaining activity was 98.6%.
The remaining activity of `O=C1c2ccccc2-c2n[nH]c3cccc1c23` is reported as 94.5%.
For `c1ccc(-c2cnc(Nc3ccc(OCCN4CCCC4)cc3)s2)cc1`, the remaining activity was 101%.
